Published values gathered from unrelated publications.
Numbers after ± are the reported error.
FGFR1: Fibroblast growth factor receptor 1 (FGFR1, Homo sapiens, UniProt P11362)
Sequence of UniProt P11362 (whole entry, looked up): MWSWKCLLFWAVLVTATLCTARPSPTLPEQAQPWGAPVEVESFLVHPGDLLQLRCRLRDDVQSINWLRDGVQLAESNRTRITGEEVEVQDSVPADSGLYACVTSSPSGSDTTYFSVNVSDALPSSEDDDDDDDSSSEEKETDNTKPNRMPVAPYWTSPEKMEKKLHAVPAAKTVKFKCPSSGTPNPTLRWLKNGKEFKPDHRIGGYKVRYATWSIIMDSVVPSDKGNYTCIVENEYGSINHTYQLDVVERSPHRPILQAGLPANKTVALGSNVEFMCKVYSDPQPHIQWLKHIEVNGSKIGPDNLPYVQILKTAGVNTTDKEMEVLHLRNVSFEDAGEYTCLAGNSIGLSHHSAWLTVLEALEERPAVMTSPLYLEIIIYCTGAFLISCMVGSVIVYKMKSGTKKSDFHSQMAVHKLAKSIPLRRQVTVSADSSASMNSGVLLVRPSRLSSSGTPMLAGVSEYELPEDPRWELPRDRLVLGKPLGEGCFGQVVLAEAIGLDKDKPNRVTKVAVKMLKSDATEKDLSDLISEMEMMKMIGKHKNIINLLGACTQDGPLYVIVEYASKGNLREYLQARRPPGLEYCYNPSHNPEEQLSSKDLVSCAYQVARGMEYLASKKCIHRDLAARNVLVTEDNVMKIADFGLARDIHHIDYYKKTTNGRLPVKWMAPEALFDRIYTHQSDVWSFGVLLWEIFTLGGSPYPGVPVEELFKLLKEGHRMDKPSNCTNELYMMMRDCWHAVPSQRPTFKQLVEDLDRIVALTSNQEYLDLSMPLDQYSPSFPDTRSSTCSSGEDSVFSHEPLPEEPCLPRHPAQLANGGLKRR
PPIA: Peptidyl-prolyl cis-trans isomerase A (PPIA, Homo sapiens, UniProt P62937)
Sequence of UniProt P31645 (whole entry, looked up): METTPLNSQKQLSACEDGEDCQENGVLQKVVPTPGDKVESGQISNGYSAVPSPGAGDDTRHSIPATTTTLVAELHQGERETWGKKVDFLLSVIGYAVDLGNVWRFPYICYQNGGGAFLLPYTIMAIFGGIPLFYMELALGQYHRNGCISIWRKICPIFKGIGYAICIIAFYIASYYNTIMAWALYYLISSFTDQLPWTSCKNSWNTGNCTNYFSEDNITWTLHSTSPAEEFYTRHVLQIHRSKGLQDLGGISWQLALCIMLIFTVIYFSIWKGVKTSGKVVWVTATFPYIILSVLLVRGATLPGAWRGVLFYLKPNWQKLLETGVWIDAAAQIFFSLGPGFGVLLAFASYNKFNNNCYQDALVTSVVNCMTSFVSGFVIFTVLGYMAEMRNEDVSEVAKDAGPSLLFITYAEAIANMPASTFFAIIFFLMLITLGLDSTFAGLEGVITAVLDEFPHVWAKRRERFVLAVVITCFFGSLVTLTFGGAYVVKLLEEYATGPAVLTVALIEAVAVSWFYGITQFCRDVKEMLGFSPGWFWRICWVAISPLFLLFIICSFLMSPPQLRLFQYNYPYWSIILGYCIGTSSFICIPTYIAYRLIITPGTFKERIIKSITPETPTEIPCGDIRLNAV
Sequence of UniProt P00374 (whole entry, looked up): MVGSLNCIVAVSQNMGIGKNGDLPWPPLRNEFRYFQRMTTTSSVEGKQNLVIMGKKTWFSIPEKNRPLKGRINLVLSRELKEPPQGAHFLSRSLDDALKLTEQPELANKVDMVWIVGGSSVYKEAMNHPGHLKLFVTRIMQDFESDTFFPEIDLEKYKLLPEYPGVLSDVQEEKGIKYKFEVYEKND
Sequence of UniProt Q8VYV7 (whole entry, looked up): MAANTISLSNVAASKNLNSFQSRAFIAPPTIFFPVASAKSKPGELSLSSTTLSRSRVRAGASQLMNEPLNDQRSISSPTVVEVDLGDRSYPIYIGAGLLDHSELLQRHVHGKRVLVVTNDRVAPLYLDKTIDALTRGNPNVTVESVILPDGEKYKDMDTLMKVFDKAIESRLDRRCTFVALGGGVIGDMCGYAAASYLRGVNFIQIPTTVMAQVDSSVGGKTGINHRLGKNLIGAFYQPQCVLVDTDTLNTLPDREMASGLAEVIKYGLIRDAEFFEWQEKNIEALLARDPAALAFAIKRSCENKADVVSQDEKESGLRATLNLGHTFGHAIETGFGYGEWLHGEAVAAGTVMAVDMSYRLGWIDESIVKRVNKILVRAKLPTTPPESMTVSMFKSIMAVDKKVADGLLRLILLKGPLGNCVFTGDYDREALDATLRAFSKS
Sequence of UniProt Q99985 (whole entry, looked up): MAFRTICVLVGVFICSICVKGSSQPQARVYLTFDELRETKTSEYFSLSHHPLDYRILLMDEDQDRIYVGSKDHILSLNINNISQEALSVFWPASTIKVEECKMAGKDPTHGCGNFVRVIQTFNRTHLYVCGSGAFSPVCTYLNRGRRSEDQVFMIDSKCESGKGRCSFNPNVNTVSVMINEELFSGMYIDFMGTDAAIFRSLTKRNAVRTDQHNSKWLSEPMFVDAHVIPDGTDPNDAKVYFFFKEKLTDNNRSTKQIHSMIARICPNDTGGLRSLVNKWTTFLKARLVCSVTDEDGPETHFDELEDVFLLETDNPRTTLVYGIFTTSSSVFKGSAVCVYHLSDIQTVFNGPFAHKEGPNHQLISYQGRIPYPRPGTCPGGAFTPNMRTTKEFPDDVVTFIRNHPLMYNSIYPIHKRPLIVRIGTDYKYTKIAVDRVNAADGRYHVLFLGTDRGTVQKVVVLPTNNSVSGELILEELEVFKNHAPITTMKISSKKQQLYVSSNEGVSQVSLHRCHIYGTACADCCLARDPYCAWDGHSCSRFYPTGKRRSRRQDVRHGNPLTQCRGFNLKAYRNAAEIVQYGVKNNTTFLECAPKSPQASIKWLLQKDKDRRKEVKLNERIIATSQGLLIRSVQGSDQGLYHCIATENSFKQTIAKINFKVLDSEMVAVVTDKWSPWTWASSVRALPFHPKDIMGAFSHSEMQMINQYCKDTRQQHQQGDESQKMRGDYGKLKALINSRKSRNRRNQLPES
Sequence of UniProt P24822 (whole entry, looked up): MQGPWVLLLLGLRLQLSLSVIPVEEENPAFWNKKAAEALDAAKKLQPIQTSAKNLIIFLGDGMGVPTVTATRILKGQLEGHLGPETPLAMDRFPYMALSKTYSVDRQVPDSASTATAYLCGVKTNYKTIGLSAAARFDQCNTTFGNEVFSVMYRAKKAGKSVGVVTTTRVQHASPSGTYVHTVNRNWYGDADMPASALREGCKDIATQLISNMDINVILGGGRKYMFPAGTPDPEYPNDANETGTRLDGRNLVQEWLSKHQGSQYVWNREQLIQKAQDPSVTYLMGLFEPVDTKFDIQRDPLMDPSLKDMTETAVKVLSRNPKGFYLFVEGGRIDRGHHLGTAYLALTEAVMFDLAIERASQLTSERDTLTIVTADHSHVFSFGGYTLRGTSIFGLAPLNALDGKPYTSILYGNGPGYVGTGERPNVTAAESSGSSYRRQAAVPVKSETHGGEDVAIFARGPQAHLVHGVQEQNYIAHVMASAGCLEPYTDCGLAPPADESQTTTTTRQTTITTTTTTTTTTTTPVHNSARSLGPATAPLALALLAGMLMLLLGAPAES
Sequence of UniProt Q15661 (whole entry, looked up): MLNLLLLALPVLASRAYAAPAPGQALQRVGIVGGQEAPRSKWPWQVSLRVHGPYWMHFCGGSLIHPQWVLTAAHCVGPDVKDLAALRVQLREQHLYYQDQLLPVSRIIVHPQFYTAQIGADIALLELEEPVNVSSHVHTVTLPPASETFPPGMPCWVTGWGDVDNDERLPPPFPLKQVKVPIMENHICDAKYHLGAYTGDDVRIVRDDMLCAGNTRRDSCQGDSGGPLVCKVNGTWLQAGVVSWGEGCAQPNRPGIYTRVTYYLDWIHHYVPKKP
Sequence of UniProt Q969F8 (whole entry, looked up): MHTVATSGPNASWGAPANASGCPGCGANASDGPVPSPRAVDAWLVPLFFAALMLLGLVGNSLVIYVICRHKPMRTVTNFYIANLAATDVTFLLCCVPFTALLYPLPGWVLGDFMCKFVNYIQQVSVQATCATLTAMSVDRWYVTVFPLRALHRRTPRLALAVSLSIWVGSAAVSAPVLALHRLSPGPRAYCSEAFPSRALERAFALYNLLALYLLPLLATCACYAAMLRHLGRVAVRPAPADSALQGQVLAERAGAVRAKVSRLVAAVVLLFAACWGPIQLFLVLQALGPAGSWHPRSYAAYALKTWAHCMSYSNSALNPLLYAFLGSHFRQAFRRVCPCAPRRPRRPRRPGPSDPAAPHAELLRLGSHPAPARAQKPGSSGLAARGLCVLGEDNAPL
Sequence of UniProt Q08345 (whole entry, looked up): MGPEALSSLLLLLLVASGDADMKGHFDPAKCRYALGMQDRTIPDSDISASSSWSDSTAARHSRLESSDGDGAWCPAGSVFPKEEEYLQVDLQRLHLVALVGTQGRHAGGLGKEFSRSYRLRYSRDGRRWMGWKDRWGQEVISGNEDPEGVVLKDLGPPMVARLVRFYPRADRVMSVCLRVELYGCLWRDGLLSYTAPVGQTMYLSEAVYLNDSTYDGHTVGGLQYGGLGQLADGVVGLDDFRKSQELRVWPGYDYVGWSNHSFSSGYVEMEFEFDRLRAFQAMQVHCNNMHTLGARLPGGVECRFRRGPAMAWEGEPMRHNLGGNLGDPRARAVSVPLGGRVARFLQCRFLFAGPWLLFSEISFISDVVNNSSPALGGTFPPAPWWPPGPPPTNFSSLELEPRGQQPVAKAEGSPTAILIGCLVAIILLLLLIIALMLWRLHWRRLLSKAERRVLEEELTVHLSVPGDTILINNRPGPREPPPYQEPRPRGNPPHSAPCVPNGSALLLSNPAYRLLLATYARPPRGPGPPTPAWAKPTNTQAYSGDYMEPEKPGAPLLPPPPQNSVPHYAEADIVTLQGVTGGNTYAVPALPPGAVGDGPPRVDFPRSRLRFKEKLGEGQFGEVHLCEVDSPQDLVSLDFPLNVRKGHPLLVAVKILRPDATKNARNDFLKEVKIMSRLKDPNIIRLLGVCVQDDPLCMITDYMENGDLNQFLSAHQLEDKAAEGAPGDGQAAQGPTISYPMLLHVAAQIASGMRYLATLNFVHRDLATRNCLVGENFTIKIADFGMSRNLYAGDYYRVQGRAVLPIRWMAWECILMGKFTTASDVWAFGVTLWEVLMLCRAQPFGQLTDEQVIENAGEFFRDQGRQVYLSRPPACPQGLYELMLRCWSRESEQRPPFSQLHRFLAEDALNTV

| SMILES | target | effect on | action | method | temperature | added | IC50 [nM] |
| --- | --- | --- | --- | --- | --- | --- | --- |
| Cc1ccc(-c2csc(N/N=C(/C=C/c3ccc(Cl)cc3)C(=O)O)n2)cc1 | Dihydrofolate reductase (DHFR, Homo sapiens, UniProt P00374) | enzyme activity | inhibitor | – | – | – | 48200 |
| COc1cc2nccc(Oc3ccc(NC(=S)NCc4ccccn4)c(Cl)c3)c2cc1C(N)=O | FGFR1 | – | – | – | – | – | 2750 |
| O=[N+]([O-])c1ccc(/N=N/c2ccc(O)c(O)c2)cc1 | Semaphorin-3C, with neuropilin-1 (SEMA3C, Homo sapiens, UniProt Q99985) | SEMA3C binding | inhibitor | displacement | – | SEMA3C-AP | 5900 |
| COc1cc2nccc(Oc3ccc(NC(=S)NCc4ccc(F)cc4)c(Cl)c3)c2cc1C(N)=O | FGFR1 | – | – | – | – | – | 3610 |
| Cc1noc(NS(=O)(=O)c2ccc(NC(=O)c3cc(-c4ccc5ccccc5c4)nc4ccccc34)cc2)c1C | PPIA | enzyme activity | inhibitor | – | – | – | 2840 |
| O=C(NCCN1CCC(Cc2ccccc2)CC1)c1ccc2cc(Br)ccc2c1 | Sodium-dependent serotonin transporter (SLC6A4, Homo sapiens, UniProt P31645) | transporter uptake | – | – | – | – | 480 to 830 |
| O=C(CCNS(=O)(=O)c1ccc2[nH]c(=O)oc2c1)NCc1cccc(F)c1 | Intestinal-type alkaline phosphatase (Mus musculus, UniProt P24822) | enzyme activity | inhibitor | luminescence | – | CDP-Star substrate | 66000 |
| CNC(=O)c1ccc(-c2cccc(NC(=O)Cc3cc(C(=O)c4ccc([S+](C)[O-])cc4)c4occc4c3)c2)cc1 (centres unmarked) | Epithelial discoidin domain-containing receptor 1 (DDR1, Homo sapiens, UniProt Q08345) | cell-free assay | – | – | – | – | 3900 |
| NCc1cccc(C2CCN(C(=O)c3cccc(OCC(=O)C4(O)CCC4)c3)CC2)c1 | Tryptase beta-1 (Homo sapiens, UniProt Q15661) | enzyme activity | inhibitor | AMC substrate release | – | – | 367 |
| COC(=O)[C@]1(O)C[C@H](CP(=O)(OC(C)C)OC(C)C)[C@@H](O)[C@H](O)C1 | 3-dehydroquinate synthase, chloroplastic (DHQS, Arabidopsis thaliana, UniProt Q8VYV7) | enzyme activity | inhibitor | malachite green phosphate release | 29 °C | – | 148000 |
| CCOC(=O)N1CCN(C(=O)[C@H](Cc2cccc(C(=N)N)c2)NS(=O)(=O)c2c(C(C)C)cc(C(C)C)cc2C(C)C)CC1 | Transmembrane protease serine 2 (TMPRSS2, Homo sapiens, UniProt O15393) | enzyme activity | inhibitor | fluorescence | – | – | 2200 |
| Cc1ccc(CNC(=O)[C@H](CCCCNC(=O)OCc2ccccc2)NC(=O)[C@H](CC2CCCCC2)NC(=O)Cc2cccnc2)cc1 | 20S proteasome (Plasmodium falciparum, UniProt A0A5K1K7U1+Q8IJT1) | β5 activity | inhibitor | – | – | Suc-LLVY-AMC, PA28α-activated | 2090 |
| N[C@@H](CCC(=O)N[C@@H](CS[Se]Cc1ccc(-c2cccc(C(O)c3ccc(Cl)c(Cl)c3)c2)cc1)C(=O)NCC(=O)O)C(=O)O (some centres unmarked) | Receptor-type tyrosine-protein phosphatase F (Homo sapiens, UniProt P10586) | enzyme activity | inhibitor | – | – | pNPP, GSH 1 mM | 68000 ± 19000 |
| CC(=O)N[C@H](C)C(=O)N[C@@H](CC(N)=O)C(=O)N[C@@H](Cc1c[nH]c2ccccc12)C(=O)N[C@@H](CC(N)=O)C(=O)NCC(=O)N[C@@H](Cc1ccccc1)C(=O)NCC(=O)N[C@H](Cc1c[nH]c2ccccc12)C(=O)N[C@@H](CCCNC(=N)N)C(=O)N[C@@H](Cc1ccccc1)C(N)=O | KiSS-1 receptor (KISS1R, Homo sapiens, UniProt Q969F8) | inositol phosphate | antagonist | – | – | – | < 10 |
| COc1ccc2c3c(c(Cc4ccc(Cl)cc4)[nH]c13)CCN(CCC(=O)O)C2=O | cGMP-specific 3',5'-cyclic phosphodiesterase (PDE5A, Homo sapiens, UniProt O76074) | enzyme activity | inhibitor | – | – | – | 32 |
| O=C(O)c1ccc(C=C2SC(=S)N(c3cccc(C(F)(F)F)c3)C2=O)cc1 | Cystic fibrosis transmembrane conductance regulator (CFTR, Homo sapiens, UniProt P13569, D1370N) | ion current | inhibitor | patch clamp | – | – | 64 |
| C=CC[C@@H]1/C=C(\C)C[C@H](C)C[C@H](OC)[C@H]2O[C@@](O)(C(=O)C(=O)N3CCCC[C@H]3C(=O)O[C@H](/C(C)=C/[C@@H]3CC[C@@H](O)[C@H](OC)C3)[C@H](C)[C@@H](O)CC1=O)[C@H](C)C[C@@H]2OC | PPIA | ligand displacement | – | FP | – | – | > 10000 |

Repeated from above:
| SMILES | target | effect on | action | method | temperature | added | IC50 [nM] |
| --- | --- | --- | --- | --- | --- | --- | --- |
| COc1cc2nccc(Oc3ccc(NC(=S)NCc4ccc(F)cc4)c(Cl)c3)c2cc1C(N)=O | FGFR1 | – | – | – | – | – | 3610 |
| Cc1noc(NS(=O)(=O)c2ccc(NC(=O)c3cc(-c4ccc5ccccc5c4)nc4ccccc34)cc2)c1C | PPIA | enzyme activity | inhibitor | – | – | – | 2840 |
| O=C(NCCN1CCC(Cc2ccccc2)CC1)c1ccc2cc(Br)ccc2c1 | Sodium-dependent serotonin transporter (SLC6A4, Homo sapiens, UniProt P31645) | transporter uptake | – | – | – | – | 480 to 830 |
